Experimental data pooled from the literature.
Numbers after ± are the reported error.
Medium: plasma

| Structure (SMILES) | test system | conditions | Cmax |
| --- | --- | --- | --- |
| Cc1ccc(OCC(=O)O)cc1 | Sprague-Dawley rat Crl:CD(SD), female | oral, 10 mg/kg/day of parent drug, day 90, 90-day repeated dosing | 1670 ± 226 ng/mL |
| CC(=O)N[C@H](CSSC[C@H](N)C(=O)O)C(=O)N[C@H](C)C(=O)N[C@H](CCCNC(=N)N)C(=O)N[C@H](CCCNC(=N)N)C(=O)N[C@H](CCCNC(=N)N)C(=O)N[C@H](C)C(=O)N[C@H](CCCNC(=N)N)C(N)=O | male human | intravenous, 2 mg, single dose, healthy volunteers | 168 ng/mL |
| CC12CC(c3ccc(S(C)(=O)=O)cc3)C3=C4CCC(=O)C=C4CCC3C1CCC2(O)C(F)(F)C(F)(F)F (stereo not drawn) | human | oral, 4 mg, single dose, fasted, healthy volunteers | 16.6 ng/mL |
| CC(C)[C@H](NC(=O)CNC(=O)[C@H](CCC(N)=O)NC(=O)[C@H](C)N)C(=O)O | male human | intravenous, 3 mg/kg, single dose | 115 ng/mL |
| [2H]C([2H])([2H])NC(=O)c1ccc(N2C(=S)N(c3ccc(C#N)c(C(F)(F)F)c3)C(=O)C2(C)C)cc1F | male human | oral, 80 mg, single dose, fasted | 3100 ng/mL |
| CN1CCC[C@]1(C)/C=C/S(=O)(=O)NC(=O)Nc1c2c(cc3c1CCC3)CCC2 | human | oral, 50 mg, single dose, healthy volunteers | 5700 ng/mL |
| CC(=O)N[C@H](CC(=O)O)C(=O)N[C@H](Cc1c[nH]c2ccccc12)C(=O)N[C@H](Cc1ccccc1)C(=O)N[C@H](CCCCN)C(=O)N[C@H](C)C(=O)N[C@H](Cc1ccccc1)C(=O)N[C@H](Cc1ccc(O)cc1)C(=O)N[C@H](CC(=O)O)C(=O)N[C@H](CCCCN)C(=O)N[C@@H](C(=O)N[C@H](C)C(=O)N[C@H](CCC(=O)O)C(=O)N[C@H](CCCCN)C(=O)N[C@H](Cc1ccccc1)C(=O)N[C@H](CCCCN)C(=O)N[C@H](CCC(=O)O)C(=O)N[C@H](C)C(=O)N[C@H](Cc1ccccc1)C(N)=O)C(C)C | statin-treated high-risk CHD women | oral, 300 mg daily, day 13, 0 to 8 h, mean, undetectable set to 0 | 10.8 ng/mL |
| O=C(CCc1ccc(CNC(C(=O)OC2CCCC2)C2CCCCC2)cn1)NO (stereo not drawn) | human | oral, 40 mg, single dose, patients | 210 ng/mL |
| CC(C)(O)c1ncc([S@](N)(=O)=NC(=O)Nc2c3c(cc4c2CCC4)CCC3)s1 | human | oral, 3 mg, single dose, fasted, healthy volunteers | 451 ng/mL |

For quick reference, copied from above:
| Structure (SMILES) | test system | conditions | Cmax |
| --- | --- | --- | --- |
| CC12CC(c3ccc(S(C)(=O)=O)cc3)C3=C4CCC(=O)C=C4CCC3C1CCC2(O)C(F)(F)C(F)(F)F (stereo not drawn) | human | oral, 4 mg, single dose, fasted, healthy volunteers | 16.6 ng/mL |
